Measured values gathered from unrelated publications.
Every numbered part comes from another study and shows a few of its results, in no order. Positions count from the first letter of the parent shown.
Sequence of UniProt P52333 (whole entry, looked up): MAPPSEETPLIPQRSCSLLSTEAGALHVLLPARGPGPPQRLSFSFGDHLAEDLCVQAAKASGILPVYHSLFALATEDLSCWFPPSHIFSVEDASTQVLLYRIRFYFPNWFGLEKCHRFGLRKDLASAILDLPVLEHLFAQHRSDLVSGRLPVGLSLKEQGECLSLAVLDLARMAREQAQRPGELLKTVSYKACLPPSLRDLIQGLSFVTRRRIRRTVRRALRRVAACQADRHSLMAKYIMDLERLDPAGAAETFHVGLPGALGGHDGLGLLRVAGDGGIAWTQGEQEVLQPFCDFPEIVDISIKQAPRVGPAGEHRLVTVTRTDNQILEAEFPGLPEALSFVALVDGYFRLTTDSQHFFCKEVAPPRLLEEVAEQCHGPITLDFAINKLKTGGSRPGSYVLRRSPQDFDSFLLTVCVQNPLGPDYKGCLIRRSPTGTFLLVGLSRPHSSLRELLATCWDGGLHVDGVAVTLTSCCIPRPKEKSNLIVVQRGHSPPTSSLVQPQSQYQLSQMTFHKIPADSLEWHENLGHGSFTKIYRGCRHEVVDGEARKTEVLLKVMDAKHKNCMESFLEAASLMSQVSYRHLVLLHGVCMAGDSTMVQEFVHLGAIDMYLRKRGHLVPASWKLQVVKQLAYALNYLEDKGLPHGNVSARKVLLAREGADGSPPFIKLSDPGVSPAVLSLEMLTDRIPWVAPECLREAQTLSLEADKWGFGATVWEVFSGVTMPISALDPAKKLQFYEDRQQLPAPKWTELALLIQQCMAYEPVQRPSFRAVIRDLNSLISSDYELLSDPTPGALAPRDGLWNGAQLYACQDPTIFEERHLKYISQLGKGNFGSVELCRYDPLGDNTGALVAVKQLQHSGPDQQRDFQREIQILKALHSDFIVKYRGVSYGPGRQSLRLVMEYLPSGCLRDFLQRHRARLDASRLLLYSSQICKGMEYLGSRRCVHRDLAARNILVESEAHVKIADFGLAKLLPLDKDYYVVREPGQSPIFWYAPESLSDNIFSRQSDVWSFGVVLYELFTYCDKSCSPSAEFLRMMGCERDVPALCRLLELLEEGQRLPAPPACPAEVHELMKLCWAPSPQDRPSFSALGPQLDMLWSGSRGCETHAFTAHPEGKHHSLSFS
Sequence of UniProt P35916 (whole entry, looked up): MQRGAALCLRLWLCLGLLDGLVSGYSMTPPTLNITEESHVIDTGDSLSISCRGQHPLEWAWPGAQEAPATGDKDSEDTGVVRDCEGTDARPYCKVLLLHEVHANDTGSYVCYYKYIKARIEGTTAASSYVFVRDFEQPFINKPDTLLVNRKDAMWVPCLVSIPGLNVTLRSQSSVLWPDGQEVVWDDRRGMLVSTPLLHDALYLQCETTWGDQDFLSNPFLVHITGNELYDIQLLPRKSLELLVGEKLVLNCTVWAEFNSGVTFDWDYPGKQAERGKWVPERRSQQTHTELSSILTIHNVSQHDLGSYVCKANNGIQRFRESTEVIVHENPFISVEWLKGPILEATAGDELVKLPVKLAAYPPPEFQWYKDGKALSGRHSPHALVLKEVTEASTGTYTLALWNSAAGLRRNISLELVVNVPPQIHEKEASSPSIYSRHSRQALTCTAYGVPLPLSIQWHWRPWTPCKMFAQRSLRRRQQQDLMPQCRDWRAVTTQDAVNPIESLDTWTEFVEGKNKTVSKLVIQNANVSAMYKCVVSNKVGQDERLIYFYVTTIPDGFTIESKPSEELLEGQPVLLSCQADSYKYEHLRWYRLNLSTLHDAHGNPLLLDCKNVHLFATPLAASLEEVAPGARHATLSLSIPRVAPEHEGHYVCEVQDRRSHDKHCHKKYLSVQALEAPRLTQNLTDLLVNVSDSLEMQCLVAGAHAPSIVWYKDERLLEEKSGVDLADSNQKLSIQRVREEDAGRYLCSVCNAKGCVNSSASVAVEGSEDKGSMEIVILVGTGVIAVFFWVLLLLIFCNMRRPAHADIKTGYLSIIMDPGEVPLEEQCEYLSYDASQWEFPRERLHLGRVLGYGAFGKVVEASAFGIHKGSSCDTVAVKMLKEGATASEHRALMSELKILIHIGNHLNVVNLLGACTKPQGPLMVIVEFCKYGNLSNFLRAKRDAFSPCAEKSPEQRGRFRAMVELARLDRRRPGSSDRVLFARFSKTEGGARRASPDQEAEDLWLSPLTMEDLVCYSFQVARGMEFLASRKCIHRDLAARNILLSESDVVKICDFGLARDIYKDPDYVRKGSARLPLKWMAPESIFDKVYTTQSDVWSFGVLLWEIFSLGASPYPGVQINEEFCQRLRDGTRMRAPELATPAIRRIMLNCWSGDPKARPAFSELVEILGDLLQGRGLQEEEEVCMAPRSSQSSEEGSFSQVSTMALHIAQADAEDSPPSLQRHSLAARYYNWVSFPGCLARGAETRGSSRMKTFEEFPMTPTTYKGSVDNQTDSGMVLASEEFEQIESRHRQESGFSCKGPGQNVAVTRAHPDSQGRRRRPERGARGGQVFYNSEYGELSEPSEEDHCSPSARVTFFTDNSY
Sequence of UniProt P29320 (whole entry, looked up): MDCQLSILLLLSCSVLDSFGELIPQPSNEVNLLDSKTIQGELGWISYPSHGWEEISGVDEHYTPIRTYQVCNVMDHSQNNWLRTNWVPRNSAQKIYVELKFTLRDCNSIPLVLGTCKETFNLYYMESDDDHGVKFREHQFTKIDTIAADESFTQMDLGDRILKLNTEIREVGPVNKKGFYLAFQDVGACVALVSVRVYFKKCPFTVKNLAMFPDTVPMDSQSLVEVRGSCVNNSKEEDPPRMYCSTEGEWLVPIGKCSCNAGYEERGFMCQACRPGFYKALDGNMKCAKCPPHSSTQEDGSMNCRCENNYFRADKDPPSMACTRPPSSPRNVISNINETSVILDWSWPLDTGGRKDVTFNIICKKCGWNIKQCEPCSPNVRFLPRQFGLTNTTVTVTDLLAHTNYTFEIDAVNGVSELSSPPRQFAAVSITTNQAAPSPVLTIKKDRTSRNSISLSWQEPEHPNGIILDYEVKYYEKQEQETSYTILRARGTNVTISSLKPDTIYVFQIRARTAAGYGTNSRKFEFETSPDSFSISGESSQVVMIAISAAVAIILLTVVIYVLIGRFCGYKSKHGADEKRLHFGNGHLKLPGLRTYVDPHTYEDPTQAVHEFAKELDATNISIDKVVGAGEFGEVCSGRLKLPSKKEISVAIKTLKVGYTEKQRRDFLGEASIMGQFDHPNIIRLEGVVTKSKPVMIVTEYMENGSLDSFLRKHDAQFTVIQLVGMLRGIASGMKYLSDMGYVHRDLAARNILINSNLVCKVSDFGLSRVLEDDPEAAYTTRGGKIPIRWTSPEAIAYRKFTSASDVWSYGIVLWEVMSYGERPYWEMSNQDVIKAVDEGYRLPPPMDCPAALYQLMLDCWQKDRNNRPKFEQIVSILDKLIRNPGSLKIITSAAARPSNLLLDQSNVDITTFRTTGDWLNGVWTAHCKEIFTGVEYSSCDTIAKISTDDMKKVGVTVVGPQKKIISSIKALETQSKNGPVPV
Sequence of UniProt Q96PY6 (whole entry, looked up): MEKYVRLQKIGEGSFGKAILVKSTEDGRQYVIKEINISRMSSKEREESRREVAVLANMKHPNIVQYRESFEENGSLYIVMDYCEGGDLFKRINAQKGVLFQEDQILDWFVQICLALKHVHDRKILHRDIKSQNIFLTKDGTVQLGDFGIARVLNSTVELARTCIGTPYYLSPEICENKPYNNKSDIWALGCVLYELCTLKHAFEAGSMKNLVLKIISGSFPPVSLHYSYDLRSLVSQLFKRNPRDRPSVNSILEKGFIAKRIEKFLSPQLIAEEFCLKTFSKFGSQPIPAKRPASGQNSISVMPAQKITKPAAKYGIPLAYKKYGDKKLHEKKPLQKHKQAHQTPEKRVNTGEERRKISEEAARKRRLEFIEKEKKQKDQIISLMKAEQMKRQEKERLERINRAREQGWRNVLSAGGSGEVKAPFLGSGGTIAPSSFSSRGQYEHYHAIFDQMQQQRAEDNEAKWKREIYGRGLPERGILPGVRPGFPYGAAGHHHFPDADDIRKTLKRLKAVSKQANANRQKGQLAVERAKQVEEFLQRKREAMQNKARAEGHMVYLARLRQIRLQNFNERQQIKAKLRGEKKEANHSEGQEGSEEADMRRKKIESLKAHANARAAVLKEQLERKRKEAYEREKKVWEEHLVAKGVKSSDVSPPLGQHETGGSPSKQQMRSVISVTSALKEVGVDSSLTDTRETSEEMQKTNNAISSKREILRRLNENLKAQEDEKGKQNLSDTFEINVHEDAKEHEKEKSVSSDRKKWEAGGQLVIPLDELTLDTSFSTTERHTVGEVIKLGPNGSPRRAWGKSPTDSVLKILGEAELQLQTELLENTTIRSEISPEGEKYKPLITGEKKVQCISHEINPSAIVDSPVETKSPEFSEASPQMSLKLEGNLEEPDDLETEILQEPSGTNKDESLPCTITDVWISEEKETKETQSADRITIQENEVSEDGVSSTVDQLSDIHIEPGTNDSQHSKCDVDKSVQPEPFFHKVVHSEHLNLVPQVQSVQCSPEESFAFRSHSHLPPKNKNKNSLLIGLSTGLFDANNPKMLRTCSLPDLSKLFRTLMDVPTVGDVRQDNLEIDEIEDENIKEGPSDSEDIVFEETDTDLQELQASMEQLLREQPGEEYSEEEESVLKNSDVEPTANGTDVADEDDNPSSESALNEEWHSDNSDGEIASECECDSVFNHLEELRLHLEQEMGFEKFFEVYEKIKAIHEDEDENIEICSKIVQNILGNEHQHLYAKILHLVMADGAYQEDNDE
Sequence of UniProt P11802 (whole entry, looked up): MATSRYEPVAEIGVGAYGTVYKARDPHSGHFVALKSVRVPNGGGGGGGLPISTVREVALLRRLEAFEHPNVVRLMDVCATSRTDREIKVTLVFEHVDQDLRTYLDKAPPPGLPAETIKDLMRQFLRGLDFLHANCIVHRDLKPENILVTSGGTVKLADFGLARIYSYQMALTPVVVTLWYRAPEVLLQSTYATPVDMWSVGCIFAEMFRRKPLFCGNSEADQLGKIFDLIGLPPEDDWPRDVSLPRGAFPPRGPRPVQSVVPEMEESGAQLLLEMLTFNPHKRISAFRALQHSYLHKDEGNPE

Block 1
Structure (SMILES): CC1=C(C#N)[C@@H](c2ccc3[nH]nc(C)c3c2)C(C#N)=C(c2ccc(Cl)cc2)N1
Read-out: cell-free assay
Method: competition with immobilised ligand
Tested at: 1 µM
target	remaining binding
ALK tyrosine kinase receptor (ALK, Homo sapiens, UniProt Q9UM73)	84.7%
Mitogen-activated protein kinase 4 (MAPK4, Homo sapiens, UniProt P31152)	89.6%
Vascular endothelial growth factor receptor 3 (FLT4, Homo sapiens, UniProt P35916)	89.5%
Receptor-type tyrosine-protein kinase FLT3 (FLT3, Homo sapiens, UniProt P36888, R834Q)	100%
Tyrosine-protein kinase Mer (MERTK, Homo sapiens, UniProt Q12866)	100%
Proto-oncogene tyrosine-protein kinase receptor Ret (RET, Homo sapiens, UniProt P07949, V804M)	73.8%
Cyclin-dependent kinase 4 (CDK4, Homo sapiens, UniProt P11802)	78.8%
cAMP-dependent protein kinase catalytic subunit beta (PRKACB, Homo sapiens, UniProt P22694)	81.5%
Phosphatidylinositol 4,5-bisphosphate 3-kinase catalytic subunit alpha isoform (PIK3CA, Homo sapiens, UniProt P42336, E545K)	74.9%
Serine/threonine-protein kinase PLK3 (PLK3, Homo sapiens, UniProt Q9H4B4)	77.5%
Serine/threonine-protein kinase PRP4 homolog (PRPF4B, Homo sapiens, UniProt Q13523)	100%

Block 2
SMILES: COc1cc(Nc2c(C#N)cnc3cc(OCCCN4CCN(C)CC4)c(OC)cc23)c(Cl)cc1Cl
Read-out: enzyme activity
Mode: inhibitor
Tested at: 0.5 µM
Reference: control
target	remaining activity [%]
Angiopoietin-1 receptor (TEK, Homo sapiens, UniProt Q02763)	82.6
Serine/threonine-protein kinase Nek1 (NEK1, Homo sapiens, UniProt Q96PY6)	15.2
Ephrin type-A receptor 3 (EPHA3, Homo sapiens, UniProt P29320)	31.7
Glycogen synthase kinase-3 beta (GSK3B, Homo sapiens, UniProt P49841)	99.9
Rhodopsin kinase GRK7 (GRK7, Homo sapiens, UniProt Q8WTQ7)	101
Tyrosine-protein kinase JAK3 (JAK3, Homo sapiens, UniProt P52333)	88.5
Mitogen-activated protein kinase kinase kinase 5 (MAP3K5, Homo sapiens, UniProt Q99683)	95.7
Tyrosine-protein kinase ABL2 (ABL2, Homo sapiens, UniProt P42684)	2.19
Activin receptor type-1B (ACVR1B, Homo sapiens, UniProt P36896)	105
Ribosomal protein S6 kinase alpha-2 (RPS6KA2, Homo sapiens, UniProt Q15349)	44.2
Serine/threonine-protein kinase A-Raf (ARAF, Homo sapiens, UniProt P10398)	109

Block 3
Target: Cellular tumor antigen p53, full length (TP53, Homo sapiens, UniProt P04637, residues 1-393)
Method: protein-binding microarray
Molecule type: hairpin DNA
Sample: in vitro
Tested at: not given
Setting: whole hairpin DNA, median over replicate spots
Reference: not given
Direction: higher = stronger binding
Oligonucleotide	median fluorescence [a.u.]
CGGACATGGCCGGGCATGTCTCCTGACATGCCCGGCCATGTCCGACACTC (5mC at 36)	12800
CGGAGATGCCCGGGCATGTCTCCTGACATGCCCGGGCATCTCCGACACTC (5mC at 40)	13400
CGGACAGGCCCGGGCATGTCTCCTGACATGCCCGGGCCTGTCCGACACTC (5mC at 38)	13900
CGGACATGCCCGCGCATGTCTCCTGACATGCGCGGGCATGTCCGACACTC (5mC at 13)	13800
CCACACGTGGTGGCATGCCTTCCTAGGCATGCCACCACGTGTGGACACTC	7790
CCACACGTCGTGGCATGCCTTCCTAGGCATGCCACGACGTGTGGACACTC (5mC at 35)	7820
CCACACGTGCGGGCATGCCTTCCTAGGCATGCCCGCACGTGTGGACACTC	10900
CCACAAGTGGTGGCATGCCTTCCTAGGCATGCCACCACTTGTGGACACTC	7780

Block 4
Target: CEBPE, bZIP domain (human)
Method: DHFR protein complementation
Sample: yeast
Setting: single substitutions, most at no-binding floor
Reference: wild-type JUN-FOS pair
Direction: higher = stronger binding
Starting sequence: JUN, bZIP domain (human); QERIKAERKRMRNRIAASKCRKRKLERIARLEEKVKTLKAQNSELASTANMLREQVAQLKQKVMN; partner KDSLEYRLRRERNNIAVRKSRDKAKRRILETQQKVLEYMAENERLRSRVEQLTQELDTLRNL
Change	binding fitness
S47Q	-1.03 natural log
A40F	-1.29 natural log
V56R	-1.52 natural log
K36A	-0.961 natural log
A49P	-1.48 natural log
S47L	-1.18 natural log
A29L	-1.25 natural log
K39S	-1.29 natural log

Some of these lines once more (block 2):
target	remaining activity [%]
Ribosomal protein S6 kinase alpha-2 (RPS6KA2, Homo sapiens, UniProt Q15349)	44.2
Ephrin type-A receptor 3 (EPHA3, Homo sapiens, UniProt P29320)	31.7
